Measured values collected from several papers.
Lines come from different studies, so protocols differ.

SMILES | organism | assay | system | setting | MIC
CCCCCCCCCCCC[S+]([O-])CC1OC(OC2C(N)CC(N)C(OC3OC(CN)C(O)CC3N)C2O)C(O)C(N)C1O (mixture of isomers) | Streptococcus mutans | – | UA159 | – | 9.4 µg/mL
CNC(CC(C)C)C(=O)NC1C(=O)NC(CC(N)=O)C(=O)NC2C(=O)NC3C(=O)NC(C(=O)NC(C(=O)NCCCNC(=N)N)c4cc(O)cc(O)c4-c4cc3ccc4O)C(O)c3ccc(c(Cl)c3)Oc3cc2cc(c3OC2OC(CO)C(O)C(O)C2OC2CC(C)(N)C(O)C(C)O2)Oc2ccc(cc2Cl)C1O (stereo not drawn) | Enterococcus faecium | – | ATCC BAA-2317 VanA | −POPE | 4 µg/mL
CC(=O)N[C@H](CCCCN)C(=O)N[C@H](CC(C)C)C(=O)N[C@H](CCCCN)C(=O)N[C@H](CO)C(=O)N[C@H](CC(C)C)C(=O)N[C@H](CC(C)C)C(=O)N[C@H](CCCCN)C(=O)N[C@@H](C(=O)N[C@H](CC(C)C)C(=O)N[C@H](CO)C(=O)N[C@H](CCCCN)C(=O)N[C@H](C)C(=O)N[C@H](CCCCN)C(=O)N[C@H](CCCCN)C(=O)N[C@H](CCCCN)C(=O)N[C@H](CC(C)C)C(=O)N[C@H](CC(C)C)C(=O)N[C@H](CCCCN)C(=O)N[C@@H](C(=O)N[C@H](C)C(=O)N[C@H](CC(C)C)C(=O)N[C@H](CCCCN)C(=O)N[C@H](C)C(=O)N[C@H](CC(C)C)C(=O)N[C@H](CO)C(=O)N[C@H](CCCCN)C(N)=O)[C@H](C)O)[C@H](C)O | Acinetobacter baumannii | broth microdilution | ATCC 19606 | 24 h, 37 °C | 0.7 µM
CC(C)=CCc1cc([C@@H]2CC(=O)c3ccc(O)c(CC=C(C)C)c3O2)c(O)c(CC=C(C)C)c1O | Streptococcus pyogenes | – | ATCC 19615 | – | inactive
CC1(C)S[C@@H]2[C@H](NC(=O)[C@H](NC(=O)C3=C(O)C(c4ccccc4F)NC3=O)c3ccccc3)C(=O)N2[C@H]1C(=O)O (stereo partly drawn) | Proteus vulgaris | microbial growth, broth dilution | ATCC33420 | – | 6.25 µg/mL
CO[C@H]1/C=C/O[C@@]2(C)Oc3c(C)c(O)c4c(c3C2=O)C2=NC3(CCN(CC(C)C)CC3)NC2=C(NC(=O)/C(C)=C\C=C\[C@H](C)[C@H](O)[C@@H](C)[C@@H](O)[C@@H](C)[C@H](OC(=O)c2cccc(C)c2)[C@@H]1C)C4=O | Mycobacteroides abscessus | – | ATCC 19977 wild type | 90% growth inhibition | 0.075 µM
CC[C@@H](C)[C@@H](NC(=O)[C@@H](C)NC(=O)[C@@H](CCCCN)NC(=O)[C@@H](CC(C)C)NC(=O)[C@@H](CC(C)C)NC(=O)[C@H](NC(=O)[C@@H](CCCCN)NC(=O)[C@@H](CC(C)C)NC(=O)[C@@H](C)NC(=O)[C@@H](CCCCN)NC(=O)[C@@H](CCCCN)NC(=O)[C@@H](CCCCN)NC(=O)[C@@H](C)NC(=O)[C@@H](CCCCN)NC(=O)[C@@H](CO)NC(=O)[C@@H](Cc1ccccc1)NC(=O)[C@H](NC(=O)[C@@H](CCCCN)NC(=O)[C@@H](CC(C)C)NC(=O)[C@@H](Cc1ccccc1)NC(=O)[C@@H](CO)NC(=O)[C@@H](CCCCN)NC(=O)[C@@H](Cc1c[nH]c2ccccc12)NC(=O)[C@@H](CCCCN)NC(C)=O)[C@H](C)O)[C@H](C)O)C(=O)N[C@H](CO)C(=O)N[C@H](CCCCN)C(N)=O | Acinetobacter baumannii | – | 964, Mueller-Hinton broth | 24 h, 37 °C | 0.7 µM
CCC(CC)C(=O)O[C@H]1[C@H](C)[C@H](O)[C@H](C)[C@@H](O)[C@@H](C)/C=C/C=C(/C)C(=O)NC2=C3NC4(CCN(CC(C)C)CC4)N=C3c3c(c(O)c(C)c4c3C(=O)[C@@](C)(O/C=C/[C@H](OC)[C@H]1C)O4)C2=O | Mycobacteroides abscessus | – | ATCC 19977 wild type | 90% growth inhibition | 1.15 µM
CC(C)C[C@H](NC(=O)[C@H](CC(N)=O)NC(=O)[C@H](CCCNC(=N)N)NC(=O)[C@@H](CC(C)C)NC(=O)[C@H](Cc1ccccc1)NC(=O)[C@H](CC(=O)O)NC(=O)[C@H](CCCCN)NC(=O)[C@@H](CC(C)C)NC(=O)[C@H](CCCNC(=N)N)NC(=O)[C@H](CCC(N)=O)NC(=O)[C@@H](NC(=O)[C@@H](CC(C)C)NC(=O)[C@H](CCCNC(=N)N)NC(=O)[C@H](CCCCN)NC(=O)[C@H](Cc1ccccc1)NC(=O)CN)C(C)C)C(=O)N[C@H](C(N)=O)C(C)C | Escherichia coli, Acinetobacter baumannii, Enterobacter cloacae | – | – | – | 6.2 to 25 µM
CN[C@@H]1[C@H](O)[C@H](NC)[C@H]2O[C@]3(O)[C@H](O[C@@H]2[C@H]1O)O[C@H](C)C[C@@]3(O)CNCCc1ccccc1 | Mycobacteroides abscessus | microbial growth | ATCC19977 | 5 days | 4 µg/mL
CNC(CC(C)C)C(=O)NC1C(=O)NC(CC(N)=O)C(=O)NC2C(=O)NC3C(=O)NC(C(=O)NC(C(=O)NCCCNC(=N)N)c4cc(O)cc(O)c4-c4cc3ccc4O)C(O)c3ccc(c(Cl)c3)Oc3cc2cc(c3OC2OC(CO)C(O)C(O)C2OC2CC(C)(NCc3ccc(-c4ccc(Cl)cc4)cc3)C(O)C(C)O2)Oc2ccc(cc2Cl)C1O (stereo not drawn) | Enterococcus faecium | – | ATCC BAA-2317 VanA | −LTA | 0.3 µg/mL
CN[C@@H]1[C@H](O)[C@H](NC)[C@H]2O[C@]3(O)[C@H](O[C@@H]2[C@H]1O)O[C@H](C)C[C@@]3(O)CNCCc1nccs1 | Mycobacteroides abscessus | microbial growth | ATCC19977 | 5 days | 4 µg/mL
O=C(NCc1nc(-c2ccc(Br)cc2)c[nH]1)Nc1ncc(Sc2ccccn2)s1 | Streptococcus pyogenes | broth microdilution | ATCC 19615 | without verapamil | 0.125 µM
COc1ccc2c(oc3c4ccc(O)cc4oc(=O)c23)c1CC=C(C)C | Streptococcus pyogenes | – | ATCC 19615 | – | inactive
CN(C)c1cc(CNCc2ccc(O)cc2)c(O)c2c1C[C@H]1C[C@H]3[C@H](N(C)C)C(O)=C(C(N)=O)C(=O)[C@@]3(O)C(O)=C1C2=O | Enterococcus faecium | – | 494, Tet M and Tet L | – | 8 µg/mL
CC(C)=CCc1cc2c(cc1O)OC[C@H]1c3ccc(O)c(CC=C(C)C)c3O[C@@H]21 | Streptococcus pyogenes | – | ATCC 19615 | – | 2 µg/mL
CO[C@H]1/C=C/O[C@@]2(C)Oc3c(C)c(O)c4c(c3C2=O)C2=NC3(CCN(CC(C)C)CC3)NC2=C(NC(=O)/C(C)=C\C=C\[C@H](C)[C@H](O)[C@@H](C)[C@@H](O)[C@@H](C)[C@H](OC(=O)c2ccccc2F)[C@@H]1C)C4=O | Mycobacteroides abscessus | – | ATCC 19977 wild type | 90% growth inhibition | 0.06 µM
CC(=O)N[C@H](CCCCN)C(=O)N[C@H](CC(C)C)C(=O)N[C@H](CCCCN)C(=O)N[C@H](CO)C(=O)N[C@H](CC(C)C)C(=O)N[C@H](CC(C)C)C(=O)N[C@H](CCCCN)C(=O)N[C@@H](C(=O)N[C@H](CC(C)C)C(=O)N[C@H](CO)C(=O)N[C@H](CCCCN)C(=O)N[C@H](C)C(=O)N[C@H](CCCCN)C(=O)N[C@H](CCCCN)C(=O)N[C@H](CCCCN)C(=O)N[C@H](CCCCN)C(=O)N[C@H](CC(C)C)C(=O)N[C@H](CCCCN)C(=O)N[C@@H](C(=O)N[C@H](CC(C)C)C(=O)N[C@H](CC(C)C)C(=O)N[C@H](CCCCN)C(=O)N[C@H](C)C(=O)N[C@H](CC(C)C)C(=O)N[C@H](CO)C(=O)N[C@H](CCCCN)C(N)=O)[C@H](C)O)[C@H](C)O | Acinetobacter baumannii | – | 884, Mueller-Hinton broth | 24 h, 37 °C | 0.3 µM

A few entries again:
SMILES | organism | assay | system | setting | MIC
CN[C@@H]1[C@H](O)[C@H](NC)[C@H]2O[C@]3(O)[C@H](O[C@@H]2[C@H]1O)O[C@H](C)C[C@@]3(O)CNCCc1nccs1 | Mycobacteroides abscessus | microbial growth | ATCC19977 | 5 days | 4 µg/mL
O=C(NCc1nc(-c2ccc(Br)cc2)c[nH]1)Nc1ncc(Sc2ccccn2)s1 | Streptococcus pyogenes | broth microdilution | ATCC 19615 | without verapamil | 0.125 µM
